Published values of several laboratories.
Every numbered part comes from another study and shows a few of its results, in no order. Substitutions count along the parent as printed.

Set 1
Target: RNA binding protein fox-1 homolog 2, RRM domain, GST-SBP tag (RBFOX2, Homo sapiens, UniProt O43251-10, residues 100-194)
Technique: RNA Bind-n-Seq
Form: RNA
Sample: in vitro
Tested at: 365 nM
Setting: natural RNA segment, single round, ends assumed
Reference: no-protein control
Reading: higher = stronger binding
Endpoint: RBNS enrichment (R)
Shared flanks, not repeated: GGGAGUUCUACAGUCCGACGAUC … UGGAAUUCUCGGGUGCCAA
Construct (chain): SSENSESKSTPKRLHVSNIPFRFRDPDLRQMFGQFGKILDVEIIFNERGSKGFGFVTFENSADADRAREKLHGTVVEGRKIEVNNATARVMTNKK
Oligonucleotide = CCCACCAUGGUCCCCUCAGUUGCACCUAGUGUCUAGCAAUGUGUCUUGCAAGAAAUUCCUAAUUCUUCUGCUGACUUGGAGCUCGCUGCCACAGACAGCACAGCCCUUGC; result = 0.532
Oligonucleotide = UGUAUGCAAUACUUUCCCCCUUUUUGCUUUGCUAACCAAAGAGCAUAUAUUUUACUGUCAGUUGUCUCAACUCUUGAAUCCAUGUGGCGUUUUCUCUGUCCUGCUGCUUC; result = 1.62
Oligonucleotide = UGUGAUAAAGAAGGGCCCAUCCUAUUUCCCCUCAUCUAGUCCAUUUACGAUUCUCACUGACUCCCCGUCUUCCUGGCAGACACAAAUAAACCCAGUGUCAGGUCUAGGAA; result = 0.374
Oligonucleotide = GAGCCAACAUCUGAAGAAACCCAUUGCUACGGCUUCCAGUGAAUGCCAGAGGAAAUGAUCUGUCCAUUUUUAGCAGAUUUGAAGGGAGGAUCUGCUUCAGGUGUAGUCUG; result = 1.34
Oligonucleotide = GGCUCUCACUUCCUCUGCCCUUCCCUCUGAGCAGCCAUAGUGACAUUUACUAUGAAUUUACUUCCUCCCAAGAAUUUGGACUGGCCGUCAGACUGUUGCUACAUACAAUU; result = 0.607
Oligonucleotide = GGCAGGAAUAAUAACUUUUACAUUUGUAUCUCUGCACCCCCGAGUGCCUAGUAUAGUGCUGAGCACAUAGUAGGCGUUUAAUAAAUGCUUGUUGAAGUAUUGUGUGGAUU; result = 0.586
Oligonucleotide = GGGGAGUAGGUCAGUGUCAACUAACAAGCCCUGCCAGGGGCCACUGCCGCUCCUCUGGUCACAGUCCACGCAGGCCAGCCCUGGUUUCUGGAAAGAGGCCUCCCUCCCUC; result = 0.297
Oligonucleotide = AUAAGAAUGUCAGCCUAGCCACAGAGUCUGAGAUUCUGAGUUCAGCCUAGCCACAGAGUCUAAGAUUCUGUAUCCUCUGACAUUUUGGAAAUGAUACACUACUGGCUUAA; result = 0.249
Oligonucleotide = CCGCUUCCCCCUCCAACCCACAGCCUUUGCUUCCAGGUGGCAGGAUUACUACUUUGCCUCUUCAGCAGCAUCUACUCUAGGCAUAUUGAUCAUUUUAGACACUGGGAGAA; result = 1.88
Oligonucleotide = GAUCUUGACUCUGAGGAGAGCCAGCCCUGUAAAAAGCUUGGUCCUCCUGUGACGGGAGGGAUGGUUAAGGUACAAAGGCUAGAAACUUGAGUUUCUUCAUUUCUGUCUCA; result = 0.317
Oligonucleotide = ACUUUUACUUAUUGUGGGAUAACCUGGCACUAGUAGGCAGGUAAAGUCACAAAUUUGGUGUCUUUUCACCUUUUGACUGUUGACUUAAUAGCUCCUCUCACUCUGCCUGG; result = 0.267
Oligonucleotide = ACUGGGCUACUCCAUGACCAGGGGCAAAAUAGGCUUUUACCGCUGCGUUCUGGGAGCUCCUCCCCCUUCUGGGAGCUCCUCCCCCUCCCCAGAAGGCCAAGGGAUGUGGG; result = 0.453

Set 2
Target: OGT, full length, His-tagged (human)
Technique: phage display, sequencing
Sample: in vitro
Tested at: 1 µg OGT
Setting: single substitutions, 15-mer displayed peptide, unchanged parent 6.14
Reference: input library
Reading: higher = stronger binding
Endpoint: fold enrichment
Starting sequence: peptide; VAYPNSYMPKYQIST
Variant = VAYPNTYMPKYQIST [S6T]; result = 8.23 fold
Variant = VAYPNSYNPKYQIST [M8N]; result = 1.02 fold
Variant = VAYPNSYMPKYLIST [Q12L]; result = 1.48 fold
Variant = MAYPNSYMPKYQIST [V1M]; result = 3.57 fold
Variant = VAYPNSYMPKYQISD [T15D]; result = 0.567 fold
Variant = VAYPNSAMPKYQIST [Y7A]; result = 0.551 fold
Variant = VAYQNSYMPKYQIST [P4Q]; result = 3.17 fold
Variant = VAYPNSFMPKYQIST [Y7F]; result = 6.82 fold
Variant = VAYPNSYMPKYQISN [T15N]; result = 1.01 fold
Variant = VAYPNSYMPQYQIST [K10Q]; result = 3.8 fold
Variant = VAEPNSYMPKYQIST [Y3E]; result = 7.01 fold
Variant = VAYPNSYMPKYSIST [Q12S]; result = 0.779 fold
Variant = VAYPNSYMPKYQRST [I13R]; result = 0.503 fold
Variant = VAYPNSYMPKYQNST [I13N]; result = 0.532 fold
Variant = VGYPNSYMPKYQIST [A2G]; result = 5.18 fold
Variant = VAYPNSYMPKYQISF [T15F]; result = 8.74 fold

Set 3
Target: CCNE1, cyclin fold, Cln2 fusion (human)
Technique: yeast growth competition, sequencing
Sample: yeast
Setting: strong parent motif
Reference: not given
Reading: higher = stronger binding
Endpoint: normalised enrichment score
Starting sequence: E2F1 docking peptide (human); PPVKRRLDFETDH
Variant = PSVKRRLDFETDH [P2S]; result = 6.51
Variant = PPVKRMLDFETDH [R6M]; result = 5.02
Variant = PPVQRRLDFETDH [K4Q]; result = 4.43
Variant = PPVKRRLDFELDH [T11L]; result = 6.14
Variant = PPVKRRLDFETVH [D12V]; result = 6.48
Variant = PPVKPRLDFETDH [R5P]; result = 0.167
Variant = PPVNRRLDFETDH [K4N]; result = 5.07
Variant = PPVKRRLDTETDH [F9T]; result = 0.196
Variant = PPVKRRLDSETDH [F9S]; result = 0.326
Variant = PPYKRRLDFETDH [V3Y]; result = 4.77
Variant = PPVKRRLPFETDH [D8P]; result = 1.76
Variant = PPVKRRLDFRTDH [E10R]; result = 6.13
Variant = PRVKRRLDFETDH [P2R]; result = 6.85
Variant = PPLKRRLDFETDH [V3L]; result = 2.15
Variant = PPVKRRLDFETTH [D12T]; result = 5.96
Variant = PPKKRRLDFETDH [V3K]; result = 0.614
Variant = PPVKRRLDHETDH [F9H]; result = -0.152
Variant = PPVFRRLDFETDH [K4F]; result = 3.68
Variant = PPVKRRLDFEIDH [T11I]; result = 6.18
Variant = PPVKRRLDFETLH [D12L]; result = 6.28
Variant = PPVKRRLDFWTDH [E10W]; result = 5.1

Set 4
Target: Histone acetyltransferase KAT6A, both winged helices, GST fusion (KAT6A, Homo sapiens, UniProt Q92794, residues 1-181)
Technique: protein binding microarray
Form: double-stranded DNA, one strand shown
Sample: in vitro
Tested at: not given
Setting: 8-mer, flanks averaged, mean of 2 arrays, mostly near background
Reference: not given
Reading: higher = stronger binding
Endpoint: E-score
Construct (chain): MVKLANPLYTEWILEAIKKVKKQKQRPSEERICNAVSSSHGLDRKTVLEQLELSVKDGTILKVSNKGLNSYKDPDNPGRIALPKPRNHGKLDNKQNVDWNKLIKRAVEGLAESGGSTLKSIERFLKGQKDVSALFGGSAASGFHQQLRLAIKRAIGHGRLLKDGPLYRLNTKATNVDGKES
Oligonucleotide = ATTGGGGC; result = -0.16
Oligonucleotide = AGCATACA; result = -0.0978
Oligonucleotide = GGCCGACA; result = 0.169
Oligonucleotide = AGAGTGGG; result = -0.156
Oligonucleotide = AACTTTTG; result = 0.00534
Oligonucleotide = AAGCAGTC; result = -0.138
Oligonucleotide = AGTCAGCA; result = -0.0494
Oligonucleotide = TGGTAGAA; result = -0.0997
Oligonucleotide = CAAACGGC; result = 0.166
Oligonucleotide = CATGGAGA; result = -0.2
Oligonucleotide = ATCCGTAG; result = 0.129
Oligonucleotide = CAATCCAG; result = -0.194
Oligonucleotide = ATATAAGC; result = -0.0321
Oligonucleotide = ATTGCCCC; result = -0.171
Oligonucleotide = AGGTGATC; result = -0.12
Oligonucleotide = CACTGCCG; result = 0.164

Set 5
Target: ABI1, truncated, D143A, DHFR fusion (Arabidopsis thaliana)
Technique: DHFR PCA, deep sequencing
Sample: yeast
Setting: methotrexate growth selection, single substitutions
Added: (+)-ABA 0 µM
Reference: wild-type fitted maximum
Reading: higher = stronger binding
Endpoint: relative binding score
Starting sequence: PYL1, truncated, DHFR fusion (Arabidopsis thaliana); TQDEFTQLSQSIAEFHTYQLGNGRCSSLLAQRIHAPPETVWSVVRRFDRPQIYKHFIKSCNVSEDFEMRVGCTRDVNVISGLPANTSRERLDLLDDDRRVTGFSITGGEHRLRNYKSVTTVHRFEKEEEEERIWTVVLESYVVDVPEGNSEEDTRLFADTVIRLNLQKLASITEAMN; partner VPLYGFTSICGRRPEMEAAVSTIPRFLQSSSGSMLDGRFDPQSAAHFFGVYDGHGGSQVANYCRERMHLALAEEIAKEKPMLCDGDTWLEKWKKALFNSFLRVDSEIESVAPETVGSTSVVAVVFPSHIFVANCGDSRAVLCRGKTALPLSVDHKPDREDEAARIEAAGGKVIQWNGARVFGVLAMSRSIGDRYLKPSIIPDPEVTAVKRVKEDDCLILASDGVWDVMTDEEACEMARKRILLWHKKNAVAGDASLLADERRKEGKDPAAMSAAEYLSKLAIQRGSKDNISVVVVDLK
Variant = N85K; result = 36.8%
Variant = V137F; result = -11.5%
Variant = C72W; result = -0.132%
Variant = L82C; result = 13.8%
Variant = S171A; result = 36.9%
Variant = A30M; result = 31.3%
Variant = I162R; result = 7.93%
Variant = I172G; result = -9.24%
Variant = E89D; result = 6.72%
Variant = V142I; result = 16.4%
Variant = E152K; result = 3.22%
Variant = V40S; result = -1.88%
Variant = E152P; result = -7.01%
Variant = D96I; result = -28.6%
Variant = S63T; result = 16.1%
Variant = S11M; result = 20.1%
Variant = N114A; result = 0.469%
Variant = E130L; result = 8.28%
Variant = R113V; result = 28.7%
Variant = V121P; result = -1.79%
Variant = S59D; result = 21.9%
Variant = I172K; result = 1.93%
Variant = W41L; result = -0.582%
Variant = L138C; result = 3.53%
Variant = T17W; result = 4.49%

Set 6
Target: Sal-like protein 4, full length isoform A (SALL4, Homo sapiens, UniProt Q9UJQ4, residues 1-1053)
Sequence of UniProt Q9UJQ4 (whole entry, looked up): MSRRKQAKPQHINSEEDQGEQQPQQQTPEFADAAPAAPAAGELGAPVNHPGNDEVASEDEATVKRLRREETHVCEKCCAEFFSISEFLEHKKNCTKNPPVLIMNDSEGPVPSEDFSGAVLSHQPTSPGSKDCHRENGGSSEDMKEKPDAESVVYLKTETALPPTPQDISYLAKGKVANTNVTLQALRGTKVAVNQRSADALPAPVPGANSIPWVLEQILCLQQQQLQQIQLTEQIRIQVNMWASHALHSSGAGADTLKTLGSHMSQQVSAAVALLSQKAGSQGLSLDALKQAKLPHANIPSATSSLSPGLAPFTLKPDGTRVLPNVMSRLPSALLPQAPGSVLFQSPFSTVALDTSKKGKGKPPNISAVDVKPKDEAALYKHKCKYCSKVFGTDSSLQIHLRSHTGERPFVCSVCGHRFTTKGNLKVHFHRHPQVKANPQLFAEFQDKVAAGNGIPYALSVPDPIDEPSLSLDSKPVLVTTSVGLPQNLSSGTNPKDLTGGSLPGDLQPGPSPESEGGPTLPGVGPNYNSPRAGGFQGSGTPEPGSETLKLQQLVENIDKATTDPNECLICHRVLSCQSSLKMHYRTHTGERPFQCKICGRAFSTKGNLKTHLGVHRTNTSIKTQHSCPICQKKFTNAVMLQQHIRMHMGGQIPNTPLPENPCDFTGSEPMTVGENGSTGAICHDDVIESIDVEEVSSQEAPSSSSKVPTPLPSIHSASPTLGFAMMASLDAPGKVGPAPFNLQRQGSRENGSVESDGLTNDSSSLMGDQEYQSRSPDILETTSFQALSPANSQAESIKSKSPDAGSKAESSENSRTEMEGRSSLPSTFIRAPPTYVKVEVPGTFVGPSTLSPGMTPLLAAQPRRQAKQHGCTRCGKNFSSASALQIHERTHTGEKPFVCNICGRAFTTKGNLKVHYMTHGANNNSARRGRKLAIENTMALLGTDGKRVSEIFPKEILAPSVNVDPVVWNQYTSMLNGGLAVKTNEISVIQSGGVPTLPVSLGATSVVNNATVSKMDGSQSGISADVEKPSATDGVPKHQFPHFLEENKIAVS
Technique: universal PBM
Form: double-stranded DNA, one strand shown
Sample: in vitro
Tested at: 600 nM
Setting: 8-mer, flanks averaged, mean of replicates
Reading: higher = stronger binding
Endpoint: E-score
Oligonucleotide = CTAGCGCC; result = -0.271
Oligonucleotide = CCTACCAG; result = -0.24
Oligonucleotide = CCTCCTCG; result = -0.156
Oligonucleotide = GGCAAGCC; result = -0.279
Oligonucleotide = GGTGTTAA; result = 0.0331
Oligonucleotide = ATTAGTCC; result = 0.186
Oligonucleotide = ATGTAAGG; result = 0.224
Oligonucleotide = CGTCGGTA; result = -0.102
Oligonucleotide = GCCCAAAA; result = 0.0481
Oligonucleotide = AAGTCATT; result = 0.128
Oligonucleotide = ATATTCTG; result = 0.219
Oligonucleotide = GCCGTCGC; result = -0.308
Oligonucleotide = ACGCATTC; result = 0.0121
Oligonucleotide = TTCGCCAA; result = 0.00224
Oligonucleotide = AACGCAGG; result = -0.176
Oligonucleotide = AAGATAGT; result = 0.174
Oligonucleotide = GTAGTTTA; result = 0.236
Oligonucleotide = AGACTAGC; result = -0.239
Oligonucleotide = ACCTGAGA; result = -4e-05
Oligonucleotide = CAGACTTA; result = 0.0138
Oligonucleotide = AATTCCCA; result = 0.175
Oligonucleotide = ACGCCATC; result = -0.213
Oligonucleotide = AATCTGCT; result = 0.0922
Oligonucleotide = GATTGTGA; result = 0.182
Oligonucleotide = CGGGCACG; result = -0.275

Set 7
Target: HLF, bZIP domain (human)
Technique: DHFR protein complementation
Sample: yeast
Setting: single substitutions, most at no-binding floor
Reference: wild-type JUN-FOS pair
Reading: higher = stronger binding
Endpoint: binding fitness
Starting sequence: JUN, bZIP domain (human); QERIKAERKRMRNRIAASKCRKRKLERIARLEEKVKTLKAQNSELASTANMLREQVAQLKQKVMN; partner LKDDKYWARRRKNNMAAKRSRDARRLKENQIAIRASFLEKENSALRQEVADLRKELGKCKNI
Variant = A49L; result = -1.4 natural log
Variant = L45W; result = -1.52 natural log
Variant = A46V; result = -1.44 natural log
Variant = L38D; result = -1.26 natural log
Variant = L45V; result = -1.52 natural log
Variant = A40C; result = -1.44 natural log
Variant = K34S; result = -1.47 natural log
Variant = Q55G; result = -1.44 natural log
Variant = E32A; result = -1.35 natural log
Variant = K39A; result = -1.32 natural log
Variant = A46M; result = -1.13 natural log
Variant = A29P; result = -1.53 natural log
Variant = K39H; result = -1.36 natural log
Variant = T37V; result = -1.48 natural log
Variant = A49Q; result = -1.35 natural log
Variant = E44L; result = -1.17 natural log
Variant = A40N; result = -1.39 natural log
Variant = I28D; result = -1.45 natural log
